Published values pooled from the literature.
A part holds a random share of what one study measured.
UniProt Q9C0B0, sequence (30-357, looked up): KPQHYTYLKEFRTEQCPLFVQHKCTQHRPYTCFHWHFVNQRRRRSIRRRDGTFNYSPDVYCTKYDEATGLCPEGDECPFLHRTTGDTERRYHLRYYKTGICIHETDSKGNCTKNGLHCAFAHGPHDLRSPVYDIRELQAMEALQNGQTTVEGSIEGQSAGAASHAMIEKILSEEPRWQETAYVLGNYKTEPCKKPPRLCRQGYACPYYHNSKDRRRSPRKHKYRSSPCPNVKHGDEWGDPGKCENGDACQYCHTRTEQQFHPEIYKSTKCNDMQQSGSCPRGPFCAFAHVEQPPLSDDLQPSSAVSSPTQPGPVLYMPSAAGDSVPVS

Series 1
Target: TAR DNA-binding protein 43, full length, His tag (TARDBP, Homo sapiens, UniProt Q13148, residues 1-414)
Method: RNA Bind-n-Seq
Molecule type: RNA
Medium: in vitro
Tested at: 20 nM
Setting: 6-mer, flanks averaged, single round
Together with: 150 mM LiCl
Relative to: input library
Reading: higher = stronger binding
| Sequence | 6-mer enrichment (R) |
| --- | --- |
| GCCAAC | 0.882 |
| UAUCAA | 0.85 |
| CCUUAU | 1.03 |
| CUUUGU | 1.12 |
| GUGCUU | 1.14 |
| ACAAAG | 0.844 |
| UAACUA | 0.897 |
| GGAACC | 0.92 |
| UUAGCG | 0.973 |
| CAUACA | 0.839 |
| GAUUAU | 0.913 |
| CUGCGG | 0.955 |
| AUGGAG | 1.1 |
| CAACUU | 0.868 |
| GAGUGA | 1.26 |
| CCUAUA | 0.924 |
| GCACUU | 0.888 |
| GGAACG | 0.993 |
| CUCCCG | 0.999 |
| GAUGCU | 0.919 |
| AUCCAA | 0.799 |
| AUUCAU | 0.907 |

Series 2
Target: Sal-like protein 4, full length isoform B (SALL4, Homo sapiens, UniProt Q9UJQ4-2, residues 1-616)
Method: universal PBM
Molecule type: double-stranded DNA, one strand shown
Medium: in vitro
Tested at: not given
Setting: 8-mer, flanks averaged, mean of replicates
Reading: higher = stronger binding
| Sequence | E-score |
| --- | --- |
| ACGTTACT | 0.121 |
| GCATCATA | 0.323 |
| CCCGAATC | -0.268 |
| CCTGGCTA | -0.107 |
| CGTTTTTA | 0.126 |
| GCGCCTAA | -0.0846 |
| CCGCATGA | -0.134 |
| AGTTGTCA | 0.0246 |
| CATTCAGG | -0.0299 |
| AAAGTCCC | 0.0242 |
| TAGTGGCA | -0.0434 |
| AGTCCAAG | -0.0802 |
| CACGCATA | 0.0339 |
| AAGAACCC | -0.276 |
| CAGATTCC | -0.274 |
| CATCCAGG | -0.0873 |
| ATCAAAAG | 0.153 |
| ATGTTCTG | 0.0333 |
| AAAGTCGT | 0.0459 |
| CTCAGAAC | -0.0844 |

Series 3
Target: Histone acetyltransferase KAT6A, winged helix 2, GST fusion (KAT6A, Homo sapiens, UniProt Q92794, residues 85-181)
Method: protein binding microarray
Molecule type: double-stranded DNA, one strand shown
Medium: in vitro
Tested at: not given
Setting: 8-mer, flanks averaged, mean of 2 arrays, mostly near background
Relative to: not given
Reading: higher = stronger binding
Construct (chain): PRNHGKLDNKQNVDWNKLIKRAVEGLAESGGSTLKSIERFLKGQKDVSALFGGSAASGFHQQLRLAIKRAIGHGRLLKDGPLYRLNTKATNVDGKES
| Sequence | E-score |
| --- | --- |
| TGCTCCCA | 0.0957 |
| ATCCCTCA | 0.111 |
| CGCTACCC | -0.0941 |
| CTTCTCAA | 0.0243 |
| ACGTATAT | -0.237 |
| GATCCTCC | -0.14 |
| AGTGTTCC | -0.0705 |
| GCCACCGA | 0.0573 |
| CCAAAACA | -0.0925 |
| AATCGATC | -0.00755 |
| GAACCTAA | -0.0173 |
| ATGAAGAG | -0.0186 |
| GACGGCGA | 0.132 |
| CAGTGGCC | 0.0833 |
| CCTCTTGA | -0.0762 |
| CAGCTTAG | 0.0653 |
| GACTCCCC | -0.0611 |
| GCTTAGAA | -0.0184 |
| ACTAGCCG | 0.0782 |
| ATCCACTC | 0.0501 |
| GATTGGTA | -0.00861 |
| ATTGGTGC | 0.0719 |
| ACGCTCGA | -0.092 |

Series 4
Target: Centromere-binding protein 1, full length, N-terminal tag (CBF1, Saccharomyces cerevisiae, UniProt P17106, residues 1-351)
UniProt P17106, sequence (whole entry, looked up): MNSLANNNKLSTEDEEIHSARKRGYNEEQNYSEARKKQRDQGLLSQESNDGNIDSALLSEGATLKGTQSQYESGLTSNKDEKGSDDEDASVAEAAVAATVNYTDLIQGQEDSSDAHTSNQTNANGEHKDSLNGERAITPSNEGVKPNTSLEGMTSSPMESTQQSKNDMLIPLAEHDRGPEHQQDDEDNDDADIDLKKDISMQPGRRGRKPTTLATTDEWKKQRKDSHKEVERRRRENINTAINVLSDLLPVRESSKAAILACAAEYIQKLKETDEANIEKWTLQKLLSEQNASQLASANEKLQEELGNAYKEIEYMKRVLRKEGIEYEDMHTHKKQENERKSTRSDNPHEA
Method: protein-binding microarray
Molecule type: double-stranded DNA, one strand shown
Medium: in vitro
Tested at: 0.8 µM
Setting: whole 60-bp probe, no competitor
Reading: higher = stronger binding
Constant ends, left off below: … GTCTTGATTCGCTTGACGCTGCTG
| Sequence | fluorescence intensity [a.u.] |
| --- | --- |
| TGTACGAAGCTATTTCAGGTCACTATAGTAGTTAGG | 552 |
| CCTAACTACTATACACGTGCAAAATAGCTTCGTACA | 6300 |
| CTACTTGATTAAAGTCACGCTTTCACCAAATATTTC | 1620 |
| GAAAACCTCATTCGTCATGTGAGAGATGCATGCTAG | 1030 |
| CCTAACTACTATAGACACGCGCAATAGCTTCGTACA | 589 |
| CTATATTGGATCCCCCACGTCGCCGCGACAGGCTTC | 465 |
| CTATCACGCCCGAATCACGTCTATTGCAGATATTTC | 623 |
| TGTACGAAGCTATATCACATGTGTATAGTAGTTAGG | 1960 |
| GAATATCGCAAAGCGGGTGAGATCAAATGCTCCTAG | 476 |
| GAATTCCTGAAGTTGCACGGGGAACCAAGGCCTTAG | 534 |
| CTAGTTCATTATCTTCACGTTTTCCCTATCACATTC | 703 |
| GAACTTTTGTTCTTCCACGTTCAAATTTCTTTGTAG | 528 |
| GAATCCAGATCTTTCTGCCTGATGAAAGAAAATTAG | 523 |
| GAACATTTCTAGGGTAACATCAGAATGCCCTTGTAG | 542 |
| GAACAGGGAGTTTATCATCAGAATGATTAGTGTTAG | 523 |
| CTAAAGTGCCGCTTACTCGTGAGAATATCAACCTTC | 562 |
| CTATCATGAGAAGCGCACATGTCGTGATATCAATTC | 1560 |
| GAACTAACAATTGTGATCATCGACTATTTGCAATAG | 535 |
| CTATGCAATTAAGTGCACGAAAAATTTCTTTTATTC | 521 |

Series 5
Target: Interferon regulatory factor 5, full length, phosphomimetic (IRF5, Homo sapiens, UniProt Q13568-2, residues 1-514, S451D/S453D/S456D/S462D)
Method: protein-binding microarray
Molecule type: double-stranded DNA, one strand shown
Medium: in vitro
Tested at: 940 nM top
Setting: 60-bp whole probe
Together with: salmon DNA 0.4 mg/ml
Relative to: random background probes
Reading: higher = stronger binding
Constant ends, left off below: GCCTAGCAC … GTCTTGATTCGCTTGACGCTGCTG
| Sequence | fitted relative affinity [z-score] |
| --- | --- |
| TTAGGTTTCGGGACTGGGTTCGTGCTA | 8 |
| GACCAACTGGGGACTGGAGACGTGCTA | -0.19 |
| TTAGGTATCGACACTGCGTTAGTGCTA | 4.71 |
| GACGGACAGGGGTTTCGGGACGTGCTA | 1.98 |
| GACGATTTCAGGTTTCGAGACGTGCTA | 2.25 |
| GACGAACTGCGACTGGAGACGTGCTAG | -0.737 |
| TTAGGTATCGGTACCGGTTAGTGCTAG | 10.7 |
| TTAGAACTGGGTTTCGATTAGTGCTAG | 6.49 |
| TTAGATCTCAGACTGGATTCGTGCTAG | -0.582 |
| GACGATACCAGTTTCGAGACGTGCTAG | 4.81 |
| GATTTCTTCCCTGTGAAAACGTGCTAG | 0.741 |
| TTAGGTTTCCTCTCCCTTTAGTGCTAG | 1.26 |
| TTAGGTCTCTTTTTCCTTTAGTGCTAG | 0.956 |
| ATTAGTATGTTCACTATTTAAGTGCTA | 0.151 |
| GTCATTATCCTTGTCCCTCCGTGCTAG | 0.843 |
| TCACCATTATATTTTAAACTGTGCTAG | 1.08 |
| GACGAACAGAGTTTCGAGACGTGCTAG | 2.07 |
| ATTGCTTTCTCTTTCACTGCGTGCTAG | 2.66 |
| TTAGGTATCGGGTTTTGGTTAGTGCTA | 5.95 |
| GACGATTTCAGGCTCGAGACGTGCTAG | -0.183 |
| GACGGACGGGACTTTCGGGACGTGCTA | 0.333 |
| GAAGGTATCCTTCTCCTGACGTGCTAG | 0.22 |
| GCCGGTTTCCTTATCCTGACGTGCTAG | 1.83 |
| TCCAGCCTGTTTCCAGCAGGGTGCTAG | -0.176 |
| GTCGGTTTCGGGACTGGGGACGTGCTA | 7.45 |

Series 6
Target: RNA binding protein fox-1 homolog 2, RRM domain, GST-SBP tag (RBFOX2, Homo sapiens, UniProt O43251-10, residues 100-194)
Method: RNA Bind-n-Seq
Molecule type: RNA
Medium: in vitro
Tested at: 365 nM
Setting: natural RNA segment, single round, ends assumed
Relative to: no-protein control
Reading: higher = stronger binding
Constant ends, left off below: GGGAGUUCUACAGUCCGACGAUC … UGGAAUUCUCGGGUGCCAA
Target sequence (chain): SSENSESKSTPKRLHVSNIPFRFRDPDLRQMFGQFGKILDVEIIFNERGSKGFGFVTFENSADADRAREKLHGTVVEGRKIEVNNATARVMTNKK
| Sequence | RBNS enrichment (R) |
| --- | --- |
| UUUUUUUUAGCAGCGCCUUUGCUAGAUCAGCUGCCAGUUUGGAUUAUUGCCCUUAAGAGCUUUAAAGAUAGUUUUUUUUACAUGCCUUAUGCAUACAUUCCACUACUGAC | 0.487 |
| CAUUUAUGUCGUGUGUGAGUGAGUGAUACGCAGAGUUCUUUACUGCUGUCUGUGGUGUGUGUGCCUUGUCUAGACAUGUGGCUUCCUCUGCUGUUGACCAGGUAGGCGCA | 1.4 |
| ACCCAGGACCACAGUGACACACGAAAGGAAACAGGCUAGGUGGUGAACCCUCCAAUUCAGGAAGUGGGAAAAGGAGCCAGGAAAUGUGCUUCUACUUUGCCAGUUAUUUC | 0.525 |
| ACCUUCAAUACUCAGAAAUGAUGGAUUCCUCCAAGGAGUCCUUUACUAGCCUAAACAUUCUCAAAUGUUUGAGAUUCAAGUGAAUGGAAGGAAAACCACAUGCCUUUAAA | 0.389 |
| AGAAACAAUUUAACAUGUUGAAACGACAAUAUUCUAAAAUACUGAUGAAUCUUGCAUCAAUAUAAUUAUUGGGUUUUUUUUCUUUUUCCUGCUGUAUAACUCCUUGCCAU | 0.326 |
| UGCAGCCCCUGGAAAAGAAGAGACAGCCAUAGACGAGGAGCCAGAGUGGGGGCAGACUGGCCAUUUUUAUUUUGAAGUUCCUGCGAGAAAUGGAUGGUGGAAGGGUGGCG | 1.11 |
| ACGUACUGCUGGUUGAAUAUCUGAGGUAAAUGAUGUUCAAUCAAGAUGCUACUUGUAUCAUUUUGCCCAUAAAUGGAUAAAUAAUUUUAUGCAUAUCAUACCAAAUGUUC | 0.325 |
| UGUCAUCAGUAUUAACUCUGGGAUACUCCGGGCUCUGUGUCUUUCCCUGUGAGGCGACAGUACAUGUGAGAAGAGGUACAUUUGUUGGAUUUUUGUUAAUGUAUUUAUUU | 1.08 |
| UCCAGAAAUGAUCAUCUGGUUAUGGAAUGAAGGGACCUGUUCUCAAGCAAAGGUCAUCACAGUGACCCAACCCAGACACUUCCCCAGCAGCCUCCCCAUACUCUGCUCCU | 0.2 |
| ACAGCUCUGGUAGCAAAACCAGUCCCCUACCCCCUAGAGAAUGCAUCCGUUUCCCCACCUGAUAUGGUUUGGCUGUGUCCCCACCUAAAACUCAUCUUGAAUUGUAGCUC | 1.46 |
| UUUUCCUCCUUUGUGUUAGGGGACAUAACAAGCUCUGCUGGGCUUGAGGGACCCAGACCAGGUGUCUGCAGUCAGCUCCUGAGACACAGCUGGCCGGCACAACAGGUGUU | 0.509 |
| CUCACCGGUUUGUACAUUAUCUGUUGUCCUUUACUACUGUAAACAGUAAAUAUAGUUUGGUAUUCUGUCUCUUGGCCUAUGUUAAACACUGUAUUUGGAGACGGGUCAUA | 0.41 |

Single results of other studies
| Sequence | target | assay | test system | setting | how to read | measurement | value |
| --- | --- | --- | --- | --- | --- | --- | --- |
| GGGAGUUCUACAGUCCGACGAUCAGCAACUCAAGGAUUGAGGACUGGUUUUACAAAUAUACCAAGCCGAUAUGGAACUAAUAACCGAAUUGGACAACCAAGACCAUGACCGACUCUAACUUAUUUUUAUAAGGAAUAUUGACUCAACAGAGGAUUGAGCAUCA | RING finger protein unkempt homolog, zinc fingers 1-6, SBP tag (UNK, Homo sapiens, UniProt Q9C0B0, residues 30-357) | RNA Bind-n-Seq | RNA, in vitro | 100 nM, RNA with constant flanks, ends assumed | relative to: input RNA pool, higher = stronger binding | bound/input enrichment | 0.236 ratio |

For quick reference, copied from above (series 2):
| Sequence | E-score |
| --- | --- |
| CATTCAGG | -0.0299 |
| AAAGTCCC | 0.0242 |
| TAGTGGCA | -0.0434 |
| AGTCCAAG | -0.0802 |
| CACGCATA | 0.0339 |
| AAGAACCC | -0.276 |
| CAGATTCC | -0.274 |
| CATCCAGG | -0.0873 |
| ATCAAAAG | 0.153 |
| ATGTTCTG | 0.0333 |
| AAAGTCGT | 0.0459 |
